Measurements of several laboratories.
Every numbered part comes from another study and shows a few of its results, in no order. Values joined by “and” are separate records of one study, mostly repeats; a detail may differ.
Chain of UniProt P54756 (whole entry, looked up): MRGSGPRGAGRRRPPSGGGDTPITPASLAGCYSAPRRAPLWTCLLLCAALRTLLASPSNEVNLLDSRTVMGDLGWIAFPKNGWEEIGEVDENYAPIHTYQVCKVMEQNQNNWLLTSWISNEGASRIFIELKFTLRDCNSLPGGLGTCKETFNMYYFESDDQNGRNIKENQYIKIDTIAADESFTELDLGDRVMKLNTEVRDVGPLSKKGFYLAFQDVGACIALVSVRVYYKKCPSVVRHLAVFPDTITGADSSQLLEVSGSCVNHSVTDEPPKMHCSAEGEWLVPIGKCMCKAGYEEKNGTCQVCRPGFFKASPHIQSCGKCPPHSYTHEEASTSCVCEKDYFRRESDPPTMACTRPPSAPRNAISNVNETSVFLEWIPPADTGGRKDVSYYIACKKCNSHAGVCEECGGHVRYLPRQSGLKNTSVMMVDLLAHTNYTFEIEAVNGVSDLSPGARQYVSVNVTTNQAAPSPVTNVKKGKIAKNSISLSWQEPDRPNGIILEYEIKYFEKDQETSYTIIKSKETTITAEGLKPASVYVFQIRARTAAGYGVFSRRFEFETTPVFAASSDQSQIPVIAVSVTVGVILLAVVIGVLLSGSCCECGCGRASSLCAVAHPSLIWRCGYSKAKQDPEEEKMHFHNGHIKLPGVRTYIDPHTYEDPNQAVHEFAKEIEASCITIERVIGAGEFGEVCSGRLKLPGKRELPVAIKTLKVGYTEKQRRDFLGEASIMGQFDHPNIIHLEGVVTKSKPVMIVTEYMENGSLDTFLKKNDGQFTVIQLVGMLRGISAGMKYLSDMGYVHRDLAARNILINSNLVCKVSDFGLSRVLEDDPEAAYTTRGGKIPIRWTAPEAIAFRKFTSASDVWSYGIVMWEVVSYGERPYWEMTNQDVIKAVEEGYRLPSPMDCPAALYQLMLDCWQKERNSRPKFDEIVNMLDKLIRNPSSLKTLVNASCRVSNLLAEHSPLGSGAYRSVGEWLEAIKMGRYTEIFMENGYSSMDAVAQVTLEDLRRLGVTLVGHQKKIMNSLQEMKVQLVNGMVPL
Chain of UniProt Q9Y243 (whole entry, looked up): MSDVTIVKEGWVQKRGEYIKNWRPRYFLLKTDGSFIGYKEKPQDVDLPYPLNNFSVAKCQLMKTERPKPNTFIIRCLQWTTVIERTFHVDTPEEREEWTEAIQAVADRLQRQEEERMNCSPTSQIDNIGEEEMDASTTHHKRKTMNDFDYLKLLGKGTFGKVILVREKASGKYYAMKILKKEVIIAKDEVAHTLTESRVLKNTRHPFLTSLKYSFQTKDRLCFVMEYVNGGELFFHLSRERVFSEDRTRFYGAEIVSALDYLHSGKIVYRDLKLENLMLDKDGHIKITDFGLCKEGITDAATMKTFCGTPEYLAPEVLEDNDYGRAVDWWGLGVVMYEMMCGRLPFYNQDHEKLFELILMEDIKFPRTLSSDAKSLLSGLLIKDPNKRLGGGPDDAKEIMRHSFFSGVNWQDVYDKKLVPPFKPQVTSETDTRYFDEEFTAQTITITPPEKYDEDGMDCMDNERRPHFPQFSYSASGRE
Chain of UniProt O14757 (whole entry, looked up): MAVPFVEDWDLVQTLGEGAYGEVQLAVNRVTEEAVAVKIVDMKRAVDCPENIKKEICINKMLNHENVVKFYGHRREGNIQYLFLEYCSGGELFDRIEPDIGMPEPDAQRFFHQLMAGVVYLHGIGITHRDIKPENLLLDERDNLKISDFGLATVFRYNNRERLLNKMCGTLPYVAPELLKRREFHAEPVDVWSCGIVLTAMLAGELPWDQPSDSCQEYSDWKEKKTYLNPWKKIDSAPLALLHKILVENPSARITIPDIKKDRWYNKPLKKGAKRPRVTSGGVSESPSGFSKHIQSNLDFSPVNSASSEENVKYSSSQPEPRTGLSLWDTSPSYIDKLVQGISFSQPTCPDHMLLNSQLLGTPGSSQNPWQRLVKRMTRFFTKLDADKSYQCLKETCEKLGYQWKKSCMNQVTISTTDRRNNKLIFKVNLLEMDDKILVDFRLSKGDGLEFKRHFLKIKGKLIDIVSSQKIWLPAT
Chain of UniProt Q9HBH9 (whole entry, looked up): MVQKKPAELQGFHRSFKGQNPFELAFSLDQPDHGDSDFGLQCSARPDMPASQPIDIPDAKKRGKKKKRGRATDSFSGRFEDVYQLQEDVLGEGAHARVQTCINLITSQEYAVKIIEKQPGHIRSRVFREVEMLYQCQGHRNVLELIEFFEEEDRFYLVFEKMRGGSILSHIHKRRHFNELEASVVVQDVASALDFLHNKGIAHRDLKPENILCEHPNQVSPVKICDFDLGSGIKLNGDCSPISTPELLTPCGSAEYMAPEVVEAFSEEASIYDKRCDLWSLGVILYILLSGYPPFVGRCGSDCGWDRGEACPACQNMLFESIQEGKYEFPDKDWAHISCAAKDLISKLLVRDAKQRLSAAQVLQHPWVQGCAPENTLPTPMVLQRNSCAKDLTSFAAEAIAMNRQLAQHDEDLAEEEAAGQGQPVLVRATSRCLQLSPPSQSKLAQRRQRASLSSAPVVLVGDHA
Chain of UniProt Q12851 (whole entry, looked up): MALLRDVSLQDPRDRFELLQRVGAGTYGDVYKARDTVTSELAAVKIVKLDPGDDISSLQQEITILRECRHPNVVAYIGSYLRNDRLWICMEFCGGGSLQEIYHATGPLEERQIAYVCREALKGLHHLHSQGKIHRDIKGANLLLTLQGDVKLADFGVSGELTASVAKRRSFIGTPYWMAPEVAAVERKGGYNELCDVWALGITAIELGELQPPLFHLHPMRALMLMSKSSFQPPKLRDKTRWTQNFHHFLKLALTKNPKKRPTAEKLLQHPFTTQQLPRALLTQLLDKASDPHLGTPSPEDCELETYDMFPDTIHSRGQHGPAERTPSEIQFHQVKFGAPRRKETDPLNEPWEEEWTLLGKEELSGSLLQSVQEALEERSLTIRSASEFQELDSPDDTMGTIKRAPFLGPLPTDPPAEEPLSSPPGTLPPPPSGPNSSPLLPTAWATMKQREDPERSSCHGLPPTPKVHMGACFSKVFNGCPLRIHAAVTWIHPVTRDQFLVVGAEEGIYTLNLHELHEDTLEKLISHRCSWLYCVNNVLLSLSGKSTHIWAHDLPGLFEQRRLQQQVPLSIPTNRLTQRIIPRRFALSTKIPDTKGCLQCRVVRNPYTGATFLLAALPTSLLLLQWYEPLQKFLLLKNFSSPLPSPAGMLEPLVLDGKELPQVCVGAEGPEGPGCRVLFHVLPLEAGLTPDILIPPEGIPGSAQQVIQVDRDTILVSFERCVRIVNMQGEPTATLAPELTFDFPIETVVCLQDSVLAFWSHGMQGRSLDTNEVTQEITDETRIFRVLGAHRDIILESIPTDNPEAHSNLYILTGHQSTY
Chain of UniProt Q13976 (whole entry, looked up): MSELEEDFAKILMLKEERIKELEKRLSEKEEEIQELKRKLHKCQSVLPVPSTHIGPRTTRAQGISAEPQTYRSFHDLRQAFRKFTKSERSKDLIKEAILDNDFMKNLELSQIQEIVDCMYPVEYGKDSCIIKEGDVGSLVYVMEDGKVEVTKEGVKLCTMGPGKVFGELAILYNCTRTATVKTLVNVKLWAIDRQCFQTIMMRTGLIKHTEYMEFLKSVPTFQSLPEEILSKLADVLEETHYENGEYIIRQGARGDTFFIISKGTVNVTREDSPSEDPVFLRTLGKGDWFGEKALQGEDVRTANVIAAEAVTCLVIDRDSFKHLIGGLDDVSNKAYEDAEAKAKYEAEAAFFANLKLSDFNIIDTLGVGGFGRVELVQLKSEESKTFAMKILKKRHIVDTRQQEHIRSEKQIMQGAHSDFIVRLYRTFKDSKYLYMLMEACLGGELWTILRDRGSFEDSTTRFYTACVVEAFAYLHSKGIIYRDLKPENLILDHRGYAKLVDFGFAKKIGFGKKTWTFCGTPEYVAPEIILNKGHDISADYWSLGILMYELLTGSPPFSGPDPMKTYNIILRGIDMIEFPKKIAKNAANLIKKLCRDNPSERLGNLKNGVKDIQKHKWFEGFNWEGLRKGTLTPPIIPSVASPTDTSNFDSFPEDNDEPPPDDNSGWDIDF
Chain of UniProt P50750 (whole entry, looked up): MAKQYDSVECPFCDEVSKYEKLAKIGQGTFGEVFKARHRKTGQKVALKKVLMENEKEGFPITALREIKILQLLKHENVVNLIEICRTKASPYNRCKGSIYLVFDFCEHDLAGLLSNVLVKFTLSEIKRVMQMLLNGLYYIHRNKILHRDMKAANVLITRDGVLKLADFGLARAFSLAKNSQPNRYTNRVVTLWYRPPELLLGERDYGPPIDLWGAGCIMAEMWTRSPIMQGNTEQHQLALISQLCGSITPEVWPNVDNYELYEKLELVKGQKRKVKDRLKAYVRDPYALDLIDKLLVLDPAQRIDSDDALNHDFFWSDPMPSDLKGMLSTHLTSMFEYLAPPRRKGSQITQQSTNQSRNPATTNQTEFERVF

Sample 1
Target: 5-hydroxytryptamine receptor 7 (HTR7, Homo sapiens, UniProt P34969)
Chain of UniProt P34969 (whole entry, looked up): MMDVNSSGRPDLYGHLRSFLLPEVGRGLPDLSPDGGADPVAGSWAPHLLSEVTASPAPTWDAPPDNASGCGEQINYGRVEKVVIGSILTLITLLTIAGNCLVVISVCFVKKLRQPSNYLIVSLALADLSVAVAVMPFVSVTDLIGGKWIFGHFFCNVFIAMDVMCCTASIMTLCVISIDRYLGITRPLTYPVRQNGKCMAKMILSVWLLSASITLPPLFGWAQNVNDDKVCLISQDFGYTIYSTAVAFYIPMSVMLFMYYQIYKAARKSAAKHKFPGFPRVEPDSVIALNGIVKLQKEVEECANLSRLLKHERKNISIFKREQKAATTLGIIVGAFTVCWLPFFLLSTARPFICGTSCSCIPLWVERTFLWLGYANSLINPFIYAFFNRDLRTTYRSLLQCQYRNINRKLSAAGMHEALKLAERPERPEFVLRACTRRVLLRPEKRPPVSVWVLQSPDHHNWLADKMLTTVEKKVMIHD
Read-out: binding
Technique: radioligand binding
Tested at: 10 µM
| Structure (SMILES) | inhibition [%] |
| --- | --- |
| O=C1c2ccc(Nc3ccc(F)cc3F)cc2CCc2ccc(OC[C@H](O)CO)cc21 | -9.25 |
| O=C(O)c1cc(-c2ccc(C3CCNCC3)cc2)c2ccc(-c3ccc(C(F)(F)F)cc3)cc2c1 | 17.8 |
| O[C@]1(C(F)(F)F)CCCC[C@H]1Nc1ccc(F)cc1 | -29.1 |
| CC(C)(O)c1cncc(-c2nc3ccc(F)cc3n2C2CC2)c1 | -2.18 |
| COc1cccc(CNC(=O)c2nc3scc(COCc4ccc(C(=O)O)cc4)c3c(=O)[nH]2)c1 | -13.9 |
| CCCOc1ccc([C@H]2[C@H](C(=O)O)[C@@H](c3ccc4c(c3)OCO4)CN2CC(=O)Nc2c(CC)cccc2CC)cc1 | -3.72 |
| CC1=C(C#N)C(c2ccc3c(c2)c(NC(=O)c2ccccc2C)nn3C)C(C#N)=C(C)N1 | 6.72 |
| O=C([C@H]1C[C@H](O)CN1c1ccc(Cl)cc1)N1CC2COCC(C1)N2Cc1ccc(Cl)cc1 | -13.8 |
| COc1nc2ccc([C@@](O)(c3ccccc3)C3CCN(C(C)=O)CC3)cc2c(Cl)c1Cc1ccc(-n2cccn2)cc1 | -2.29 |
| COCc1nc2cnc3cc(-c4c(C)noc4C)c(OC[C@H]4CCNC4)cc3c2n1[C@H](C)c1ccccc1 | -5.39 |
| Cc1nc(C2CCN(C(=O)c3ccc(OC(F)(F)F)cc3N)CC2)c2ncc(N3CCN(C)CC3)cc2n1 | -0.78 |
| CCOCCn1cc(C(=O)Nc2ccc(-n3nc(-c4cccnc4)cc3C(F)(F)F)cn2)ccc1=O | -4.22 |

Sample 2
Compound: CC[n+]1c(/C=C/N(C)c2ccccc2)n(-c2ccccc2)c2ccc(-c3nc4ccccc4s3)cc21
Read-out: enzyme activity
Action: inhibitor
Tested at: 0.5 µM
Relative to: control
| target | remaining activity [%] |
| --- | --- |
| cGMP-dependent protein kinase 1 (PRKG1, Homo sapiens, UniProt Q13976) | 104 |
| Mitogen-activated protein kinase kinase kinase kinase 2 (MAP4K2, Homo sapiens, UniProt Q12851) | 103 |
| Mitogen-activated protein kinase 12 (MAPK12, Homo sapiens, UniProt P53778) | 105 |
| Ephrin type-A receptor 5 (EPHA5, Homo sapiens, UniProt P54756) | 100 |
| Serine/threonine-protein kinase Chk1 (CHEK1, Homo sapiens, UniProt O14757) | 103 |
| MAP kinase-interacting serine/threonine-protein kinase 2 (MKNK2, Homo sapiens, UniProt Q9HBH9) | 97.4 |
| Mast/stem cell growth factor receptor Kit (KIT, Homo sapiens, UniProt P10721) | 104 |
| RAC-gamma serine/threonine-protein kinase (AKT3, Homo sapiens, UniProt Q9Y243) | 109 |
| Mitogen-activated protein kinase 13 (MAPK13, Homo sapiens, UniProt O15264) | 102 |
| Cyclin-dependent kinase 9, with cyclin T1 (CDK9, Homo sapiens, UniProt P50750) | 89.5 |
| Interleukin-1 receptor-associated kinase 4 (IRAK4, Homo sapiens, UniProt Q9NWZ3) | 173 |

Sample 3
Structure (SMILES): CC(C)n1cnc(-c2ccc(F)cc2)c1-c1ncc(C(=O)Nc2ccc(N3CCN(C)CC3)cc2)[nH]1
Technique: phase 2a trial
| species | route | dose | notes | patients with TEAE |
| --- | --- | --- | --- | --- |
| patients with idiopathic pulmonary fibrosis | – | dose not given | allergic conjunctivitis, grade 1, all arms | 0% |
| patients with idiopathic pulmonary fibrosis | – | 30 mg once daily | skin papilloma, maximum intensity grade 2 | 0% |
| idiopathic pulmonary fibrosis patients | oral | 30 mg once daily | musculoskeletal disorders, grade 4 | 0% |
| patients with idiopathic pulmonary fibrosis | – | 60 mg once daily | free thyroxine decreased, grade 5 | 0% |
| patients with idiopathic pulmonary fibrosis | – | 30 mg once daily | renal and urinary disorders SOC, grade 5 | 0% |
| idiopathic pulmonary fibrosis patients | oral | dose not given | urine red cells, grade 5, all arms | 0% |

Mixed results
| Compound | cell line | tested at | time | with | endpoint | result |
| --- | --- | --- | --- | --- | --- | --- |
| O=C1CCC(N2Cc3cc(C4CCN(Cc5ccccc5)CC4)ccc3C2=O)C(=O)N1 (stereo not drawn) | Jurkat | 100 nM | 24 h | CD3/CD28 beads, 1:4 | IL-2 level | 209 pg/mL and 135 pg/mL and 173 pg/mL |

Repeated from above (sample 1):
| Structure (SMILES) | inhibition [%] |
| --- | --- |
| CCOCCn1cc(C(=O)Nc2ccc(-n3nc(-c4cccnc4)cc3C(F)(F)F)cn2)ccc1=O | -4.22 |
| CCCOc1ccc([C@H]2[C@H](C(=O)O)[C@@H](c3ccc4c(c3)OCO4)CN2CC(=O)Nc2c(CC)cccc2CC)cc1 | -3.72 |
| O=C(O)c1cc(-c2ccc(C3CCNCC3)cc2)c2ccc(-c3ccc(C(F)(F)F)cc3)cc2c1 | 17.8 |
| Cc1nc(C2CCN(C(=O)c3ccc(OC(F)(F)F)cc3N)CC2)c2ncc(N3CCN(C)CC3)cc2n1 | -0.78 |
